Measurements pooled from the literature.
Compare with care: the assays were run in different laboratories. Values joined by “and” are separate records of one study, mostly repeats; a detail may differ. Numbers after ± are the reported error.
HTR1A: 5-hydroxytryptamine receptor 1A (HTR1A, Homo sapiens, UniProt P08908)
Chain of UniProt P08908 (whole entry, looked up): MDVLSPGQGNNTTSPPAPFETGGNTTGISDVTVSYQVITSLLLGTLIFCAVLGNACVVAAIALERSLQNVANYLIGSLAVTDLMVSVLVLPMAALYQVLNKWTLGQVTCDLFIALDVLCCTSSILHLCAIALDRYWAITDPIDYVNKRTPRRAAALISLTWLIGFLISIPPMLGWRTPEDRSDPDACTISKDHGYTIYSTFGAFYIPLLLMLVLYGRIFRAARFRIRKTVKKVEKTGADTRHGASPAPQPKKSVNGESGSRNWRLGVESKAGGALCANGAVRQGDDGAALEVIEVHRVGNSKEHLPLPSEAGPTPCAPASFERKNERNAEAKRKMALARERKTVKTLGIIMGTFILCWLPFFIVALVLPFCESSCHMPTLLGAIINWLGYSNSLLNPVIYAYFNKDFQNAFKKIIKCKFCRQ
HTR4: 5-hydroxytryptamine receptor 4 (HTR4, Homo sapiens, UniProt Q13639)
Chain of UniProt Q8IWT6 (whole entry, unmodified, looked up): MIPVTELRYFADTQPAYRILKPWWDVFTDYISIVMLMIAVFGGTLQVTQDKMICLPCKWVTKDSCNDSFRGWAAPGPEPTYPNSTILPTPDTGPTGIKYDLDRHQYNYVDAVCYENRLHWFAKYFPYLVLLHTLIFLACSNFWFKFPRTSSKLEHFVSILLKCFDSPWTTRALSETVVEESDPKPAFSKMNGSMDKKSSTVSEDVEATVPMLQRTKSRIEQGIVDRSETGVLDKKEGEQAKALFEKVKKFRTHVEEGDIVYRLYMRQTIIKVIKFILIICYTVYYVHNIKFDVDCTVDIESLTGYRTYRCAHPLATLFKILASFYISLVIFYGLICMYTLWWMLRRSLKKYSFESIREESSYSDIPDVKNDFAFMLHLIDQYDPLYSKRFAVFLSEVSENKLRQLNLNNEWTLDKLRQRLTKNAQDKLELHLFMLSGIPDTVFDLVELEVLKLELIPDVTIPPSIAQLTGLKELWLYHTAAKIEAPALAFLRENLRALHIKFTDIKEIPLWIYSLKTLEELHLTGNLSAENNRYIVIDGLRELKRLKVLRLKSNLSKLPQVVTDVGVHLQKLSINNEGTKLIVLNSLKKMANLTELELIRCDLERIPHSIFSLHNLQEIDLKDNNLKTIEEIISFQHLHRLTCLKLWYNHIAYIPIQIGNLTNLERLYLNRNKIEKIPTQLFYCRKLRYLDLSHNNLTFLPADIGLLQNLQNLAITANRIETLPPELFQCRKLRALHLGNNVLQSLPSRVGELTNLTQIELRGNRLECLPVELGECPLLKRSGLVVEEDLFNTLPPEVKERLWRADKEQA
Chain of UniProt Q13639 (whole entry, looked up): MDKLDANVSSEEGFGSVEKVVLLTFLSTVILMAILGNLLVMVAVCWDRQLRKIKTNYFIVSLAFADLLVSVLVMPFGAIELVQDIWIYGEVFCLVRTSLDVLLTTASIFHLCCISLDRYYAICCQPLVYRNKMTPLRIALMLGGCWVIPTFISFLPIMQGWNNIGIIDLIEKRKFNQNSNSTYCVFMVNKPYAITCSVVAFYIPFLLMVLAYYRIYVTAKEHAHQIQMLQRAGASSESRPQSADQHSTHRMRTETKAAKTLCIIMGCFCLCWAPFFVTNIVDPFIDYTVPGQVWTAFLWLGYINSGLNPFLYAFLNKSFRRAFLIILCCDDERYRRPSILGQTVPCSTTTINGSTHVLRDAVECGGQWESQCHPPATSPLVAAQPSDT
Chain of UniProt Q02750 (whole entry, looked up): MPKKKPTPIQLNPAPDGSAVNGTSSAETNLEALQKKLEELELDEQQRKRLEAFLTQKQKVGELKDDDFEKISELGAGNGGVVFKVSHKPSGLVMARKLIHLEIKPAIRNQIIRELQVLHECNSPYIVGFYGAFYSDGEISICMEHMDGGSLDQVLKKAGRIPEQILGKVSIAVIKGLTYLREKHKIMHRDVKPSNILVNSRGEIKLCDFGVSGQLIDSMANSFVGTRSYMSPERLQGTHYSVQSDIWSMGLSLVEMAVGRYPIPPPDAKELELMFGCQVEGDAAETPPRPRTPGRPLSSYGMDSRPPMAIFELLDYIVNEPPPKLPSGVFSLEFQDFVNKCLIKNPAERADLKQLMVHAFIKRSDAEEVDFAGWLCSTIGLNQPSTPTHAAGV
Chain of UniProt Q7RTT9 (whole entry, looked up): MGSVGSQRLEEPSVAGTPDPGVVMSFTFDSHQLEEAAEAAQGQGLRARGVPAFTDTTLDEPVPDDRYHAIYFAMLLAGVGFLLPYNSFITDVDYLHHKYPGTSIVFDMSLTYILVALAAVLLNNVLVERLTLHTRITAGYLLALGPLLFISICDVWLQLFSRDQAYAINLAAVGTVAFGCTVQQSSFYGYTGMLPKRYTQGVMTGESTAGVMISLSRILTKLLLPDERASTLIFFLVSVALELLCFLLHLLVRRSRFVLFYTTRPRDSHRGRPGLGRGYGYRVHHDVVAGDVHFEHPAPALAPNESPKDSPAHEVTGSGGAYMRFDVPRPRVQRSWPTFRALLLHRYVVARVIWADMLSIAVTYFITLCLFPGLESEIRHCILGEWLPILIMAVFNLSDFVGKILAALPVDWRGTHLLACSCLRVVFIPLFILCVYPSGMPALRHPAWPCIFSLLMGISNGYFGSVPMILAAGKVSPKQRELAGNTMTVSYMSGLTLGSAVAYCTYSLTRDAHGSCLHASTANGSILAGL
Chain of UniProt P21918 (whole entry, looked up): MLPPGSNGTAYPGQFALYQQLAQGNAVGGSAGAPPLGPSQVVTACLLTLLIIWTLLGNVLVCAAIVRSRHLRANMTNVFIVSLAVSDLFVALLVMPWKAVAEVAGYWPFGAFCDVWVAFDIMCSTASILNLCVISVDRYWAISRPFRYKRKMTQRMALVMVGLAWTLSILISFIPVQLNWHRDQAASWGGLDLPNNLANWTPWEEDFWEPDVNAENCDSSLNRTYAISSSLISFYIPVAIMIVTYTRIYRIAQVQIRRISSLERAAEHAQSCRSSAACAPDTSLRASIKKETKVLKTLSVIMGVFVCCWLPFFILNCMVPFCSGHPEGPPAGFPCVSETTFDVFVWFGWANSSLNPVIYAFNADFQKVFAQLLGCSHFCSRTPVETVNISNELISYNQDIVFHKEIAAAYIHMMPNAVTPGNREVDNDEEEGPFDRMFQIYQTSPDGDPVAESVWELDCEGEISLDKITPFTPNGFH
Chain of UniProt O14920 (whole entry, looked up): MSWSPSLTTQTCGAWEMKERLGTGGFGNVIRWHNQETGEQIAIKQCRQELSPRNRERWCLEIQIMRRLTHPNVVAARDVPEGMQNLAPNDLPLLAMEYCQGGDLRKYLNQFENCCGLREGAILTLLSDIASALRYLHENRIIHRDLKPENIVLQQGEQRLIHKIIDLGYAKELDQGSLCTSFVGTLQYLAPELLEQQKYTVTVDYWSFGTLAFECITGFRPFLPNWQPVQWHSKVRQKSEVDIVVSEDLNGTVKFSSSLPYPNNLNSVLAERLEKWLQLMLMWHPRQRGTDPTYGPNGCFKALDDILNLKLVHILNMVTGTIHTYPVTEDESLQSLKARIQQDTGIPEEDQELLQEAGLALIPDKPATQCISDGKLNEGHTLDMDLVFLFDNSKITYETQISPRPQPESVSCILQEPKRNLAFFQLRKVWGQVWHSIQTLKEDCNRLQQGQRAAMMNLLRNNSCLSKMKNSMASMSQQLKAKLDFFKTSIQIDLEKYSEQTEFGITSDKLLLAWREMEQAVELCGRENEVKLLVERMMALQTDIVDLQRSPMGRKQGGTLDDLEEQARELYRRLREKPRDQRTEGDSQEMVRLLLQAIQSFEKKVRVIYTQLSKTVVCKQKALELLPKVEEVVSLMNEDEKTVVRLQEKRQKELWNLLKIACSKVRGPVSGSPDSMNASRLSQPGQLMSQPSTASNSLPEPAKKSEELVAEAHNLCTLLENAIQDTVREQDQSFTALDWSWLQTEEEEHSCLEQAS
Chain of UniProt Q96S38 (whole entry, looked up): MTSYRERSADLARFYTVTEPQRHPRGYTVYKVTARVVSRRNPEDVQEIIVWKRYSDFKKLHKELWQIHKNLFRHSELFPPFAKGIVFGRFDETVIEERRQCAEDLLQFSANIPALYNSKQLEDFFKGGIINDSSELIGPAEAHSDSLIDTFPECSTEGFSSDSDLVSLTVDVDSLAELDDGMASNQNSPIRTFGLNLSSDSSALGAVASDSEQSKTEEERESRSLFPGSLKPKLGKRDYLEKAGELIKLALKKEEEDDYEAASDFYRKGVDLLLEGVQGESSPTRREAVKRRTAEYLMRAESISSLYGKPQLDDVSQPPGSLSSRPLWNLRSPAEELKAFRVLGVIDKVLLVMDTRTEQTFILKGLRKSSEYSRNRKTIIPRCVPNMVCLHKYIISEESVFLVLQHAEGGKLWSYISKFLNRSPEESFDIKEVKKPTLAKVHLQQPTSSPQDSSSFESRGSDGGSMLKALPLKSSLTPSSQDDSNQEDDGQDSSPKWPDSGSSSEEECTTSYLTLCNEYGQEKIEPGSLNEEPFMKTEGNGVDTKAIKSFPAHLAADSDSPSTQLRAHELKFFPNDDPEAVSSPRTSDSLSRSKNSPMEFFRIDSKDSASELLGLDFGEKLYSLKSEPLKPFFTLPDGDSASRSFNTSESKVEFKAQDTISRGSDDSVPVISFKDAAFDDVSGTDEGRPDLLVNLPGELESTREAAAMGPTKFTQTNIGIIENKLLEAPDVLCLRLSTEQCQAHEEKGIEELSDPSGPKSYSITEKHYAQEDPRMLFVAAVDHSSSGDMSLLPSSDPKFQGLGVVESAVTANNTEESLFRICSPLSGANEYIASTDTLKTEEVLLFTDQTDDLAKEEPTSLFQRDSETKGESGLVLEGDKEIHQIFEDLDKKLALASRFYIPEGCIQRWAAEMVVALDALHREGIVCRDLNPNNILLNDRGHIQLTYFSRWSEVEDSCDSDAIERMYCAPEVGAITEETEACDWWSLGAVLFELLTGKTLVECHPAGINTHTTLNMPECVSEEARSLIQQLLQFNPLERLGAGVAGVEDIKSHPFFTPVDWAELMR

Compound	tested on	test	system	conditions	scale	measurement	result
Cc1cc(O)c2c(c1)C(=O)c1cc(O)cc(O)c1C2=O	HepaRG co-cultured with HK-2	MTT		33.33 µM, 48 h	reference: untreated control	cell viability	46.2 ± 3.94%
COc1ccc2c(c1)C(=O)N(CCN1CCN(c3ccccc3OC)CC1)C2	HTR1A	radioligand binding		concentration not given, together with: [3H]8-OH-DPAT		inhibition	92.4%
C[C@@H]1CCO[C@H]2Cn3cc(C(=O)NCc4ccc(F)cc4F)c(=O)c(O)c3C(=O)N12	SLC29A4 (Homo sapiens, UniProt Q7RTT9)	transporter uptake, inhibitor, refers to: [14C]MPP+ uptake	MDCK-II transfected with PMAT	up to 100 µM, together with: [14C]MPP+ 10 µM		inhibition	no inhibition
O=C(NO)c1ccc(CN2CCCCc3ccccc32)c(F)c1	HTR1A	radioligand binding, radioligand displacement		10 µM, mean of replicates		inhibition	-15.6%
COc1cccc2c(Nc3ccc4[nH]c(C(=O)N/N=C/c5ccc(SC)cc5)cc4c3)cc(C)nc12	COS-7	WST-8		3 µM, 24 h, 0.1% DMSO, unit not given	reference: vehicle control	metabolic activity	0.9 ± 0.1
Clc1cccc(OC[C@@H]2CN(CCN3CCc4ccccc43)CCO2)c1	HTR4	radioligand binding		concentration not given		inhibition	11.7%
Cc1cc(-c2ccnc3[nH]cc(F)c23)cc(F)c1[C@@]1(O)[C@H](C)CN(C(=O)CN)C[C@@H]1C	AKT1 and AKT3	ATP probe binding, KiNativ, refers to: Lys1 site	HEK293T cell lysate	0.1 µM		inhibition	-10.7%
Cn1cc(-c2cnc3ccc(NC(=O)Nc4ccc(F)c(Br)c4)cc3n2)cn1	IKBKB (Homo sapiens, UniProt O14920)	kinase binding, KiNativ profiling, refers to: Lys1 peptide	PANC-1 lysate	1.25 µM		inhibition	1.2%
COc1ccc(F)cc1C(=O)NCc1ccc(-c2nn([C@@H](C)C(F)(F)F)c(N)c2C(N)=O)cc1	MAP2K1 (Homo sapiens, UniProt Q02750)	target engagement, competitive chemoproteomics	human PBMCs	10 µM		inhibition	35.9%
Cc1cc(-c2ccnc3[nH]cc(F)c23)cc(F)c1[C@@]1(O)[C@H](C)CN(C2CCS(=O)(=O)CC2)C[C@@H]1C	AKT1 and AKT3	ATP probe binding, KiNativ, refers to: Lys1 site	HEK293T cell lysate	10 µM		inhibition	28%
CC[C@@H]1[C@H](F)C(=O)N[C@@H]1COc1nccc2cc(C(N)=O)c(OC)cc12	RPS6KC1 (Homo sapiens, UniProt Q96S38)	ATP probe binding, KiNativ profiling, refers to: domain 1 ATP site	THP-1 cell lysate	0.2 mM		inhibition	-1.8%
Clc1cncc(OC[C@H]2CN(CCN3CCc4ccccc43)CCO2)c1	DRD5 (Homo sapiens, UniProt P21918)	radioligand binding		concentration not given, together with: [3H]SCH23390		inhibition	10.2%
Cc1cc2c(cc1N1C(=O)c3cccc4c(CCCO)ccc(c34)C1=O)n(C)c(=O)n2C (racemic)	BRD1 (Homo sapiens, UniProt O95696)	binding, BROMOscan binding		100 nM		inhibition	0%
COc1cc(C(=O)NS(=O)(=O)c2ccccc2C)ccc1Cc1cn(C)c2ccc(NC(=O)OC3CCCC3)cc12	LRRC8A/LRRC8C (Homo sapiens, UniProt Q8IWT6+Q8TDW0, L134K/L136K)	ion current, whole-cell patch clamp	HCT LRRC8-/- cells	100 µM, +100 mV, L134K/L136K heteromers		inhibition	95.6% and 88.6% and 85.2% and 97.7%
Cn1cc(-c2ccc(-c3cncc(Cl)c3N3CCC4(CCNC4=O)CC3)cc2)cn1	COLO 205	gene expression, microarray, refers to: WWTR1 mRNA		concentration not given, 2 h	reference: untreated cells	log2 fold change	-1.97
O=C(Nc1cccc2c(=O)cc(-c3nnn[nH]3)oc12)c1ccc(OCCCCc2ccccc2)cc1	Volume-regulated anion channel subunit LRRC8C, part LRRC8A IL1 chimera (LRRC8C, Homo sapiens, UniProt Q8TDW0, L136K)	ion current, inhibitor, whole-cell patch clamp	HCT LRRC8-/- cells	3 µM, +100 mV		inhibition	92.7% and 89.8% and 80.8% and 92.1%
O=C(CN1CCO[C@H](COc2cccnc2)C1)N1CCc2ccccc21	HTR1A	radioligand binding		concentration not given, together with: [3H]8-OH-DPAT		inhibition	21.7%
CC(=O)c1c(C)cc2cc(O)cc(O[C@@H]3O[C@H](CO)[C@@H](O)[C@H](O)[C@H]3O)c2c1O	HepaRG co-cultured with HK-2	MTT		66.67 µM, 48 h	reference: untreated control	cell viability	82.7 ± 13.3%
CN(C)C(=O)CCc1nc(-c2ccccc2)c(-c2ccccc2)o1	COS-7			50 µM, 24 h, 0.1% DMSO, unit not given	reference: vehicle control	necrotic cells	0.75 ± 0.27
c1cncc(OC[C@H]2CN(CCN3CCc4ccccc43)CCO2)c1	HTR4	radioligand binding		concentration not given		inhibition	5.6%
